{"data": "Experimental data pooled from the literature", "note": "Each numbered part is a random draw from the data of one study; scales do not carry over between parts.", "chain of UniProt Q9FX25 (whole entry, looked up)": "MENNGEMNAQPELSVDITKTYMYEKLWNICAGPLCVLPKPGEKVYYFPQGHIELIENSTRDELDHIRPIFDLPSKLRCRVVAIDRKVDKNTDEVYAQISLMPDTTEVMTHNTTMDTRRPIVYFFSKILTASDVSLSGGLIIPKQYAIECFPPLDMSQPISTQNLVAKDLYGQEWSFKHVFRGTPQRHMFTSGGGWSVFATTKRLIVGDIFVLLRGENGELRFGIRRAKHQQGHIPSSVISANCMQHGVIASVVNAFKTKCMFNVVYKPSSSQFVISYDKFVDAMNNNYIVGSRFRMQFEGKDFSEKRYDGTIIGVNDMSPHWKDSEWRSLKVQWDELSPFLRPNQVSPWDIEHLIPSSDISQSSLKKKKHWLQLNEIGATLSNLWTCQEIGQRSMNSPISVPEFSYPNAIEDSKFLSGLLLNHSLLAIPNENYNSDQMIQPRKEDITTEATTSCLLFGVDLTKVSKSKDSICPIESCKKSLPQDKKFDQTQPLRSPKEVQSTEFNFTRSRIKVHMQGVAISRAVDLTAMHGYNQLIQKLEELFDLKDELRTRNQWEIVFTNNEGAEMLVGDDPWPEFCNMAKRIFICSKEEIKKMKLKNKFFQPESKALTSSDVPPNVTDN", "chain of UniProt Q8L7G0 (whole entry, looked up)": "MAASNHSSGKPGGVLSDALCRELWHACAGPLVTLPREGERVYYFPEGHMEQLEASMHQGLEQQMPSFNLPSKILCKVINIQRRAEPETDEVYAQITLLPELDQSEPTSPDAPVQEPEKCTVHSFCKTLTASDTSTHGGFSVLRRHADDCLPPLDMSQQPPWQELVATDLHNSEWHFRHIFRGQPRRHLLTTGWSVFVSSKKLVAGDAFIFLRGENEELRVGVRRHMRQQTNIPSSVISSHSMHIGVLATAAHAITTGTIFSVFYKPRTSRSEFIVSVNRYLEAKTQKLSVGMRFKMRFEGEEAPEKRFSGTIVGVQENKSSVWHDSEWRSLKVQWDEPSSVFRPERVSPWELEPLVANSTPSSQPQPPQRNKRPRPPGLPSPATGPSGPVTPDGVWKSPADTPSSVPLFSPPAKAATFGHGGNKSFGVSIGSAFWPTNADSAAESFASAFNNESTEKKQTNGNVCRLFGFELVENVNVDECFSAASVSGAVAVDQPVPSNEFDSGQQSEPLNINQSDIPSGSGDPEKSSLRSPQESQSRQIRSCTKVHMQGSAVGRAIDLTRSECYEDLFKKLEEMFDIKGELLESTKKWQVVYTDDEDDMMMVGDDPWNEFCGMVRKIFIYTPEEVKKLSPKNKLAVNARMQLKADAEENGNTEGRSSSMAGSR", "chain of UniProt O24409 (whole entry, looked up)": "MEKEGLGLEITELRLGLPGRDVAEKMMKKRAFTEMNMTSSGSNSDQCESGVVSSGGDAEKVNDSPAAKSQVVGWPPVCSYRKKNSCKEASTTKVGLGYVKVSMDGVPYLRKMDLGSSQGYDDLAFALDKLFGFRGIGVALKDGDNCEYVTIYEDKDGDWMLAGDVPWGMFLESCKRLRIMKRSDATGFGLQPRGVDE", "chain of UniProt Q9XED8 (whole entry, looked up)": "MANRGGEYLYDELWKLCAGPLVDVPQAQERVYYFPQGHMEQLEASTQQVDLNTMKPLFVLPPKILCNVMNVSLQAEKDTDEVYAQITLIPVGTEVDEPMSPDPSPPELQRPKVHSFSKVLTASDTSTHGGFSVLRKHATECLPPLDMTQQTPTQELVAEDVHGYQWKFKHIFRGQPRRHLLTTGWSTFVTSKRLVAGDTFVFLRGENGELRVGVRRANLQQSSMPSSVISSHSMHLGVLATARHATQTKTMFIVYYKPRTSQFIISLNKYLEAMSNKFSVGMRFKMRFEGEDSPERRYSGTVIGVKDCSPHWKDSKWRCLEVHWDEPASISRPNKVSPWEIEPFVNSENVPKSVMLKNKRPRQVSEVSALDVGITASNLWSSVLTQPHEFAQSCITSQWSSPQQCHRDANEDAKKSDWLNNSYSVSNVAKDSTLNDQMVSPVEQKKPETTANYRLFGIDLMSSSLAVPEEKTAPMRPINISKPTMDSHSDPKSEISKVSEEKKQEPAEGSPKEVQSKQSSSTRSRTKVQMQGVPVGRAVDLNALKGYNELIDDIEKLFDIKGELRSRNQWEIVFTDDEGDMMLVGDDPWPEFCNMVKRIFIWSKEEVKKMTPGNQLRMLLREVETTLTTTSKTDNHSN"}
{"data": "Set 1", "partner": "H2BC21 (Homo sapiens, UniProt Q16778)", "method": "cross-linking MS", "setting": "hits only"}
{"Substance": "H2BC17 (Homo sapiens, UniProt P23527)", "interaction screen": "cross-linked"}
{"Substance": "H3-4 (Homo sapiens, UniProt Q16695)", "interaction screen": "cross-linked"}
{"Substance": "H2BC11 (Homo sapiens, UniProt P06899)", "interaction screen": "cross-linked"}
{"Substance": "H2BC5 (Homo sapiens, UniProt P58876)", "interaction screen": "cross-linked"}
{"Substance": "Histone H2B type 1-C/E/F/G/I (Homo sapiens, UniProt P62807)", "interaction screen": "cross-linked"}
{"data": "Set 2", "target": "PABPC1L2, full length, GST fusion (mouse, UniProt A0ABA7IW68)", "method": "RNAcompete", "form": "RNA", "matrix": "in vitro", "concentration": "20 nM", "setting": "7-mer, probes averaged, single round", "baseline": "mean of 7-mers", "reading": "higher = stronger binding", "Construct (chain)": "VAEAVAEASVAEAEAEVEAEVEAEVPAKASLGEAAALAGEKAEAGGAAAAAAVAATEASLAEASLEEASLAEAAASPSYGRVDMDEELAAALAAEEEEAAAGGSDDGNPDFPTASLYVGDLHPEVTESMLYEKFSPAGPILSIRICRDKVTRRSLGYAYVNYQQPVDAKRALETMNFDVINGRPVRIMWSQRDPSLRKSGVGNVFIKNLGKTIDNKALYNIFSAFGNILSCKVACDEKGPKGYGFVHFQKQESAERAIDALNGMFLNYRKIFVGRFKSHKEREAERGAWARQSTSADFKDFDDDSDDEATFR"}
{"Strand": "UGCCAGA", "7-mer Z-score": 0.000733}
{"Strand": "CUUGAUC", "7-mer Z-score": -0.277}
{"Strand": "GAAUUCG", "7-mer Z-score": -0.226}
{"Strand": "CAGAGUG", "7-mer Z-score": -0.0681}
{"Strand": "UUAAUCG", "7-mer Z-score": -0.161}
{"Strand": "UAGGGCA", "7-mer Z-score": 0.354}
{"Strand": "GCGCAGA", "7-mer Z-score": 0.124}
{"Strand": "UGAGAAA", "7-mer Z-score": 0.852}
{"data": "Set 3", "Molecule": "B1 (IAA16)", "method": "two-hybrid", "baseline": "out of 4 tests", "reading": "higher = firmer interaction", "B1": "IAA16 (Arabidopsis thaliana, UniProt O24407); chain MINFEATELRLGLPGGNHGGEMAGKNNGKRGFSETVDLKLNLSSTAMDSVSKVDLENMKEKVVKPPAKAQVVGWPPVRSFRKNVMSGQKPTTGDATEGNDKTSGSSGATSSASACATVAYVKVSMDGAPYLRKIDLKLYKTYQDLSNALSKMFSSFTIGNYGPQGMKDFMNESKLIDLLNGSDYVPTYEDKDGDWMLVGDVPWEMFVDSCKRIRIMKGSEAIGLAPRALEKCKNRS"}
{"partner": "ARF1 538-665 (Arabidopsis thaliana, UniProt Q8L7G0)", "positive tests": 0}
{"partner": "IAA17 (Arabidopsis thaliana, UniProt P93830)", "positive tests": 4}
{"partner": "IAA19 (Arabidopsis thaliana, UniProt O24409)", "positive tests": 4}
{"partner": "ARF9 519-638 (Arabidopsis thaliana, UniProt Q9XED8)", "setting": "weak activation fusion", "positive tests": 2}
{"partner": "ARF13 (Arabidopsis thaliana, UniProt Q9FX25)", "positive tests": 0}
{"data": "Mixed results"}
{"SMILES": "c1cc2c(ccn2-c2ccc3ccnc(N4CCCC4)c3c2)cn1", "system": "human, microsomes or S9", "setting": "2 µM, 0.5 h", "quantity": "remaining compound", "value": "7.81%"}
{"note": "Some of these lines once more (set 2):"}
{"Strand": "CUUGAUC", "7-mer Z-score": -0.277}
{"Strand": "GAAUUCG", "7-mer Z-score": -0.226}
{"Strand": "CAGAGUG", "7-mer Z-score": -0.0681}
